Measured values collected from several papers.
Protocols differ between the studies behind these lines. Values joined by “and” are separate records of one study, mostly repeats; a detail may differ. ± marks the error that the study gave.

C1c2c(-c3nnn[nH]3)n[nH]c2[C@@H]2C[C@H]12 (relative stereo)  heat withdrawal response (Hargreaves test; wild-type mouse; subcutaneous, 10 mg/kg): no effect
Cc1cccc2c1[nH]c1c(-c3ccc(Cl)c(Cl)c3)nc(C(=O)NCCNCCO)cc12  half-life (human liver microsomes): 5.33 h
O=C(NC1CCN(c2ncnc3[nH]cnc23)CC1)c1cccc(NS(=O)(=O)c2ccc(F)cc2)c1  AUC(0-t) (mouse, plasma; oral, 70 mg/kg): 28.9 ng·h/mL
Cc1nc2c[nH]c(/C=C/C=C/c3ccc(N(C)C)cc3)cn-2c1=O  time to brain entry (Balb/c mouse, brain; intravenous, dose not given): ≤ 5 min
[2H]C1(C(=O)Nc2ccc3cc(C(=O)O)ccc3c2)CCN(S(=O)(=O)c2ccc(C)cc2C)CC1  intrinsic clearance (rat liver microsomes): 43.3 µL/min/mg
[11CH3]Nc1ccc(C(=O)C2CCN(C3Cc4ccccc4CC3O)CC2)cc1 (single isomer, unassigned)  logD (1-octanol/phosphate buffer; pH 7.4): 2.6
COc1cccc2c(N3CCC(CCP(=O)(O)O)CC3)ncnc12  serum concentration (mouse, serum; subcutaneous, 10 mg/kg, 8 h, single dose): ≤ 0.01 µM
N#Cc1ccc(S(=O)(=O)N=C(N)N2CC(c3ccccc3)C(c3ccc(Cl)cc3)=N2)cc1 (single isomer, unassigned)  logD (n-octanol/phosphate buffer; pH 7.4, room temperature): 3.8 and 3.79
C[C@@H]1CN(C)CCN1c1nc(-c2ccc(F)cc2)cs1  Cmax (mouse, brain; intraperitoneal, 10 mg/kg): 3530 ng/g
O=C(NC1CCCCC1)Oc1ccc(O)c(-c2ccccc2)c1  plasma half-life ratio (rat plasma; baseline: cpd over URB597): ~29 fold
CCCSc1nc(N[C@@H]2C[C@H]2c2ccc(F)c(F)c2)c2nnn([C@@H]3C[C@H](O)[C@@H](O)[C@H]3O)c2n1  plasma concentration (female Wistar rat, plasma; oral, 180 mg/kg/day ticagrelor, 5 h, day 1, 2-year carcinogenicity study): 3.9 ± 1.4 µM
CN(CC(=O)N(Cc1ccc(C2CCCCC2)cc1)c1ccc(C(=O)NO)cc1)S(=O)(=O)c1c(F)c(F)c(F)c(F)c1F  plasma concentration (CD-1 mouse, plasma; intravenous, 5 mg/kg, 30 min): ~700 ng/mL

Some of these lines once more:
C[C@@H]1CN(C)CCN1c1nc(-c2ccc(F)cc2)cs1  Cmax (mouse, brain; intraperitoneal, 10 mg/kg): 3530 ng/g
